Published values pooled from the literature.
Each line is one published result; not all experiments were run side by side. ± marks the error that the study gave.
EGFR: Epidermal growth factor receptor (EGFR, Homo sapiens, UniProt P00533)

Structure (SMILES) = COc1ccc(-c2nn(-c3ccc(S(C)(=O)=O)cc3)cc2/C=N/N=c2\[nH]c(-c3ccc(Br)cc3)cs2)cc1; target = EGFR; assay = kinase activity, inhibitor; IC50 = 43 ± 2 nM
Structure (SMILES) = CC(C)(C)n1nc(-c2ccc3nc(OC4CC4)ccc3c2)c(C(N)=O)c1N; target = EGFR; IC50 = > 10000 nM
Structure (SMILES) = COC(=O)/C=C/c1ccc2ncnc(Nc3cccc(C(F)(F)F)c3)c2c1; target = EGFR; assay = enzyme activity, inhibitor; IC50 = 19.1 nM
Structure (SMILES) = C=CC(=O)Nc1cc(Nc2ncc(C(=O)OC(C)C)c(-c3cn(C)c4ccccc34)n2)c(OC)cc1N(C)CCN(C)C; target = EGFR; assay = EGFR phosphorylation, HTRF; test system = H2073^WT cells; setting = 2 h, together with: EGF; IC50 = 68 nM
Structure (SMILES) = C=CC(=O)Nc1cccc(Sc2nc(Nc3ccc(N4CCN(C)CC4)cc3)ncc2Cl)c1; target = Epidermal growth factor receptor, with GRB2 (EGFR, Homo sapiens, UniProt P00533); assay = EGFR-GRB2 interaction, NanoBiT; test system = cells expressing EGFR wild type; setting = 1 h, together with: EGF 300 ng/mL; IC50 = 512 nM
Structure (SMILES) = C=CC(=O)Nc1cc(Nc2nccc(Nc3cc(Cl)c(F)cc3C(C)(C)O)n2)c(OC)cc1N1CC[C@@H](N(C)C)C1; target = EGFR; assay = EGFR phosphorylation, HTRF; test system = HaCaT^WT cells; setting = 2 h, together with: EGF; IC50 = 349 nM
Structure (SMILES) = CC(C)Cc1ccc(-c2nn(-c3ccc(S(C)(=O)=O)cc3)cc2/C=N/N=c2\[nH]c(-c3ccc([N+](=O)[O-])cc3)cs2)cc1; target = EGFR; assay = kinase activity, inhibitor; IC50 = 388 ± 17 nM
Structure (SMILES) = OCc1ccc(Nc2ccc3ncnc(Nc4cccc(C(F)(F)F)c4)c3c2)cc1; target = EGFR; assay = enzyme activity, inhibitor; IC50 = 8.71 nM

Repeated from above:
Structure (SMILES) = C=CC(=O)Nc1cc(Nc2ncc(C(=O)OC(C)C)c(-c3cn(C)c4ccccc34)n2)c(OC)cc1N(C)CCN(C)C; target = EGFR; assay = EGFR phosphorylation, HTRF; test system = H2073^WT cells; setting = 2 h, together with: EGF; IC50 = 68 nM
